# Assay results collected from several papers.
# Each line is one published result; not all experiments were run side by side. ± marks the error that the study gave.
# Cell line: U-251
SMILES,test,setting,how to read,quantity,value
CCOc1ccc(-c2nc3cc(-c4nc5cc(N6CCN(C)CC6)ccc5[nH]4)ccc3[nH]2)cc1OCC,SRB,"10 µM, 48 h",,growth percent,4.64%
NNc1nc(-c2ccc(Cl)cc2)c2c(NC(=O)c3ccccc3)nnc-2[nH]1,SRB,"10 µM, NCI60 single-dose screen",reference: untreated,cell growth,96.8%
CCCCN1CCN(c2ccc3[nH]c(-c4ccc5[nH]c(-c6ccc(C(F)(F)F)cc6)nc5c4)nc3c2)CC1,SRB,"10 µM, 48 h",,growth percent,-86.6%
C#C[C@@]1(O)[C@@H](CO)O[C@@H](n2cc(F)c3c(N)ncnc32)[C@@H]1O,SRB,NCI-60 screen,,TGI,11.6 µM
Cc1cc(C)n(-c2nc(-c3ccc(Cl)cc3)c3c(NC(=O)c4ccccc4)nnc-3[nH]2)n1,SRB,"10 µM, NCI60 single-dose screen",reference: untreated,cell growth,87.9%
Cc1cc(=O)[nH]c(=O)n1Cc1cn(-c2cc3ccccc3oc2=O)nn1,,"10 µM, CNS cancer cell line, NCI60",,growth percentage,101%
O=C(Nc1nnc2n3c(nc(-c4ccc(Cl)cc4)c1-2)SCC3=O)c1ccccc1,SRB,"10 µM, NCI60 single-dose screen",reference: untreated,cell growth,109%
Cc1cc(=O)[nH]c(=O)n1Cc1cn(-c2c3ccccc3nc3ccccc23)nn1,,"10 µM, CNS cancer cell line, NCI60",,growth percentage,88.3%
Cn1cncc1C1=CN(c2ncnc3[nH]cnc23)CCS1,,CNS cancer,,GI50,28.2 µM
CCCN1CCN(c2ccc3[nH]c(-c4ccc5[nH]c(-c6ccc(C(F)(F)F)cc6)nc5c4)nc3c2)CC1,SRB,"10 µM, 48 h",,growth percent,-82.2%
O=c1ccn(Cc2cn(-c3c4ccccc4nc4ccccc34)nn2)c(=O)[nH]1,,"10 µM, CNS cancer cell line, NCI60",,growth percentage,89.5%
O=C(Nc1nnc2n3c(=S)[nH][nH]c3nc(-c3ccc(Cl)cc3)c1-2)c1ccccc1,SRB,"10 µM, NCI60 single-dose screen",reference: untreated,cell growth,72.8%
CC1=CC(=O)C(C(C)C)=CC1=O,PI staining flow cytometry,"concentration not given, 48 h",,cells in S phase,45.5%
CCCN1CCN(c2ccc3nc(-c4ccc5nc(-c6cc(OC)ccc6OC)[nH]c5c4)[nH]c3c2)CC1,SRB,"10 µM, 48 h",,growth percent,85.8%
Cc1cc(=O)[nH]n1-c1nc(-c2ccc(Cl)cc2)c2c(NC(=O)c3ccccc3)nnc-2[nH]1,SRB,"10 µM, NCI60 single-dose screen",reference: untreated,cell growth,81.7%
O=C1NCCc2[nH]c(-c3ccncc3)cc21,MTS,NCI60 panel,,IC50,4.57 µM
C=CC(=O)Nc1cc(Nc2nccc(-c3cn(C)c4ccccc34)n2)c(OC)cc1N(C)CCN(C)C,qRT-PCR,"30 µM, 24 h",reference: untreated,MAPK1 mRNA level,~1.5 fold
CCCN1CCN(c2ccc3[nH]c(-c4ccc5[nH]c(-c6ccc(OCC)c(OCC)c6)nc5c4)nc3c2)CC1,SRB,"10 µM, 48 h",,growth percent,-71.9%
O=C1NC(c2ccccc2)(c2ccccc2)C(=O)N1Cc1cn(-c2c3ccccc3nc3ccccc23)nn1,,"10 µM, CNS cancer cell line, NCI60",,growth percentage,91.2%
Cc1cc(-c2ccccc2)n(-c2nc(-c3ccc(Cl)cc3)c3c(NC(=O)c4ccccc4)nnc-3[nH]2)n1,SRB,"10 µM, NCI60 single-dose screen",reference: untreated,cell growth,93.1%
COc1ccc(-c2ccc3ncc4c(c3c2)n([C@@H]2CCN(C)CC2(F)F)c(=O)n4C)cn1,immunofluorescence,"30 nM, 1 h after irradiation, with: radiation",,RT-induced 53BP1 foci,75 ± 6.3%
COc1ccc(OC)c(-c2nc3ccc(-c4nc5ccc(N6CCN(C)CC6)cc5[nH]4)cc3[nH]2)c1,SRB,"10 µM, 48 h",,growth percent,80.4%

# A few entries again:
SMILES,test,setting,how to read,quantity,value
Cc1cc(=O)[nH]c(=O)n1Cc1cn(-c2cc3ccccc3oc2=O)nn1,,"10 µM, CNS cancer cell line, NCI60",,growth percentage,101%
O=C(Nc1nnc2n3c(nc(-c4ccc(Cl)cc4)c1-2)SCC3=O)c1ccccc1,SRB,"10 µM, NCI60 single-dose screen",reference: untreated,cell growth,109%
